Assay results pooled from the literature.
Lines come from different studies, so protocols differ. Numbers after ± are the reported error.
CHRM1: Muscarinic acetylcholine receptor M1 (CHRM1, Homo sapiens, UniProt P11229)
UniProt P11229, sequence (whole entry, looked up): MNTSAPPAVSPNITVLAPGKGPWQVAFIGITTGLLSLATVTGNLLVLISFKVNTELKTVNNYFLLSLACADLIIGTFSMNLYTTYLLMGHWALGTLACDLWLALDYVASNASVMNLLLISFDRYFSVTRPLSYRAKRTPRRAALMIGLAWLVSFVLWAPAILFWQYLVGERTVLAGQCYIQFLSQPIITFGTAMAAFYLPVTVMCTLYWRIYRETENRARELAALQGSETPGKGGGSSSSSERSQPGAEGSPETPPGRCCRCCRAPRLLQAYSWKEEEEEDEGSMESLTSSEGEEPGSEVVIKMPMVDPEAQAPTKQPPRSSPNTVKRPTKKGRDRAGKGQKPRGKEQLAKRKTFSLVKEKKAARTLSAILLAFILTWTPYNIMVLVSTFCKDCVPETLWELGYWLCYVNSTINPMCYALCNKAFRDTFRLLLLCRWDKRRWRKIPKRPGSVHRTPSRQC
UniProt P08912, sequence (whole entry, looked up): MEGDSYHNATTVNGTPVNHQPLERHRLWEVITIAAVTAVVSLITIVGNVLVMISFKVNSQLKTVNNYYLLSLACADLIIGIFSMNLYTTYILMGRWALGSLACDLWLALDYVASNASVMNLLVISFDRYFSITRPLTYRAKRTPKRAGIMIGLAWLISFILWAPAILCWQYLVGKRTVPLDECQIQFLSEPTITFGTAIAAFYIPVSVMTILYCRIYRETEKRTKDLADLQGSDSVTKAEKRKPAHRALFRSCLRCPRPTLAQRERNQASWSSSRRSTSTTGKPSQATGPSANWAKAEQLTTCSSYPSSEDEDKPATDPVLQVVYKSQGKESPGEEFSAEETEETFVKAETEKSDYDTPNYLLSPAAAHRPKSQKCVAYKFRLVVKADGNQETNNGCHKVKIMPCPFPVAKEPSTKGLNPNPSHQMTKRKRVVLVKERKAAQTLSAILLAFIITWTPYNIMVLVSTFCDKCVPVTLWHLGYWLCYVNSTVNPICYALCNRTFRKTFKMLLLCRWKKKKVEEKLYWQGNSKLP
UniProt P49685, sequence (whole entry, looked up): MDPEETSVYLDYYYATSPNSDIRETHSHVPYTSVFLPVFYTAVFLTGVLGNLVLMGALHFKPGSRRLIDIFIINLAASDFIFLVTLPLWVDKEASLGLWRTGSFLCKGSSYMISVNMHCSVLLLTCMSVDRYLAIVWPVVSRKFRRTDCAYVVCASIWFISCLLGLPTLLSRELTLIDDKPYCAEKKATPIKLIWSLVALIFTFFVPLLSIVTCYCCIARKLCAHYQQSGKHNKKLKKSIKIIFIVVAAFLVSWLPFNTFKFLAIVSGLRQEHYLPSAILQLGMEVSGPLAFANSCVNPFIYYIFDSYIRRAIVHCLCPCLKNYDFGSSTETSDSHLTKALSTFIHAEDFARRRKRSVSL

| SMILES | target or system | test | test system | setting | how to read | endpoint | value |
| --- | --- | --- | --- | --- | --- | --- | --- |
| CCCC[C@H](NC(=O)COCCOCCNC(=O)CN1CCN(CC(=O)O)CCN(CC(=O)O)CC1)C(=O)N[C@H]1CC(=O)NCCCC[C@@H](C(N)=O)NC(=O)[C@H](Cc2c[nH]c3ccccc23)NC(=O)[C@H](CCCNC(=N)N)NC(=O)[C@@H](Cc2ccccc2)NC(=O)[C@H](Cc2c[nH]cn2)NC1=O [copper-64 labelled] | – | – | C57 mice, bone | intravenous, 0.37 MBq, 24 h | – | tissue uptake | 0.01 ± 0.01 %ID/g |
| CCCC[C@H](NC(=O)[C@H](CC(N)=O)NC(=O)[C@H](CCCNC(=N)N)NC(=O)[C@@H](NC(=O)CNC(=O)[C@H](C)NC(=O)[C@H](CCCCNC(=O)CCC(=O)O[C@@H](C(=O)O[C@H]1C[C@@]2(O)[C@@H](OC(=O)c3ccccc3)[C@@H]3[C@]4(OC(C)=O)CO[C@@H]4C[C@H](O)[C@@]3(C)C(=O)[C@H](O)C(=C1C)C2(C)C)[C@@H](NC(=O)OC(C)(C)C)c1ccccc1)NC(=O)[C@H](C)NC(=O)[C@H](CCCNC(=N)N)NC(=O)[C@@H](NC(=O)CNC(C)=O)C(C)C)C(C)C)C(=O)N[C@@H](Cc1ccccc1)C(=O)N[C@@H](CCCCNC(=O)CCC(=O)O[C@@H](C(=O)O[C@H]1C[C@@]2(O)[C@@H](OC(=O)c3ccccc3)[C@@H]3[C@]4(OC(C)=O)CO[C@@H]4C[C@H](O)[C@@]3(C)C(=O)[C@H](O)C(=C1C)C2(C)C)[C@@H](NC(=O)OC(C)(C)C)c1ccccc1)C(=O)N[C@@H](CO)C(=O)N[C@@H](CCC(=O)O)C(=O)N[C@@H](CO)C(=O)N[C@@H](Cc1ccc(O)cc1)C(=O)O | – | – | CD-1 mice, plasma | iv, 50 mg/kg | – | distribution half-life | 27.6 min |
| [64Cu+2].c1ccc(CNCc2ccc(CN3CCCN4CCNCCCN(CC4)CC3)cc2)nc1 | CXCR4 | – | NOD/SCID mouse, U87 and U87-stb-CXCR4 xenografts, kidney | iv, 240 min, ex vivo | – | tissue uptake | 35.4 ± 4.75 %ID/g |
| CC(C)C[C@@H]1NC(=O)[C@H](CCCNC(=N)N)NC(=O)[C@H](C(C)C)NC(=O)[C@H](Cc2c[nH]cn2)NC(=O)[C@H](Cc2c[nH]cn2)NC(=O)CNC(=O)[C@H](CCCCN)NC(=O)[C@H](CC(C)C)NC(=O)[C@H](CC(N)=O)NC(=O)[C@H]([C@@H](C)O)NC(=O)[C@H](CO)NC(=O)[C@H](CC(N)=O)NC(=O)[C@@H]2CCCN2C(=O)[C@H](CO)NC(=O)[C@@H]2CCCN2C(=O)[C@H](C(C)C)NC(=O)[C@H](CCCNC(=N)N)NC(=O)[C@H](Cc2c[nH]cn2)NC(=O)[C@@H]2CSSC[C@H](NC1=O)C(=O)N[C@@H](CCCCN)C(=O)N1CCC[C@H]1C(=O)N[C@H](C(=O)N[C@@H](CCCCN)C(=O)N[C@@H](CC(C)C)C(=O)N[C@@H](CCC(=O)O)C(=O)N1CCC[C@H]1C(=O)N[C@@H](CCC(=O)O)C(=O)N1CCC[C@H]1C(=O)N[C@@H](CCCNC(=N)N)C(=O)N[C@@H](CC(C)C)C(=O)N[C@@H](Cc1c[nH]c3ccccc13)C(=O)N[C@H](C(=O)N[C@H](C(=O)N1CCC[C@H]1C(=O)NCC(=O)N[C@@H](C)C(=O)N[C@@H](CC(C)C)C(=O)N1CCC[C@H]1C(=O)N[C@@H](CCC(N)=O)C(=O)N[C@H](C(=O)O)C(C)C)C(C)C)C(C)C)CSSC[C@H](NC(=O)[C@H](CC(C)C)NC(=O)[C@H](CCCNC(=N)N)NC(=O)[C@@H](NC(=O)[C@H](CCCNC(=N)N)NC(=O)[C@H](CCCNC(=N)N)NC(=O)CNC(=O)[C@H](CO)NC(=O)[C@H](Cc1c[nH]c3ccccc13)NC(=O)[C@H](C)NC(=O)[C@H](CCCCN)NC(=O)[C@H](C)NC(=O)[C@@H]1CCCN1C(=O)[C@H](CCCNC(=N)N)NC(=O)[C@H](CCCNC(=N)N)NC(=O)[C@@H](N)CCCCN)[C@@H](C)O)C(=O)N2 | G-protein coupled receptor 15, with Gi2 (Homo sapiens, UniProt P49685) | Gi2 activation, agonist, BRET | HEK293A transfected GPR15 | – | – | EC50 | 72.4 nM |
| CCCCCCCCCCCCCCCCCC(=O)OC[C@H](NC(=O)[C@H](Cc1c[nH]c2ccccc12)NC(=O)[C@H](Cc1c[nH]cn1)NC(=O)[C@@H]1CCC(=O)N1)C(=O)N[C@@H](Cc1ccc(O)cc1)C(=O)N[C@H](CC(C)C)C(=O)N[C@@H](CC(C)C)C(=O)N[C@@H](CCCNC(=N)N)C(=O)N1CCC[C@H]1C(=O)NCC | – | – | deionized water | – | – | critical aggregation concentration | 6.76 µg/mL |
| CCCC[C@H](NC(=O)CNC(=O)CNC(=O)CN1CCN(CC(=O)O)CCN(CC(=O)O)CCN(CC(=O)O)CC1)C(=O)N[C@H]1CC(=O)NCCCC[C@@H](C(N)=O)NC(=O)[C@H](Cc2c[nH]c3ccccc23)NC(=O)[C@H](CCCNC(=N)N)NC(=O)[C@@H](Cc2ccccc2)NC(=O)[C@H](Cc2c[nH]cn2)NC1=O [lutetium-177 labelled] | – | – | C57 mouse, female, stomach | intravenous, 0.037 MBq, 0.5 h | – | tissue uptake | 2.29 ± 0.45 %ID/g |
| N=C(N)NCCC[C@@H]1NC(=O)[C@H](CCCCNC(=O)CC[C@H](NC(=O)CC[C@H](NC(=O)CN2CCN(CC(=O)O)CCN(CC(=O)O)CCN(CC(=O)O)CC2)C(=O)N[C@@H](CCC(=O)NCCCC[C@@H]2NC(=O)[C@@H](Cc3ccccc3)NC(=O)[C@H](CC(=O)O)NC(=O)CNC(=O)[C@H](CCCNC(=N)N)NC2=O)C(=O)NCCCC[C@@H]2NC(=O)[C@@H](Cc3ccccc3)NC(=O)[C@H](CC(=O)O)NC(=O)CNC(=O)[C@H](CCCNC(=N)N)NC2=O)C(=O)NCCCC[C@@H]2NC(=O)[C@@H](Cc3ccccc3)NC(=O)[C@H](CC(=O)O)NC(=O)CNC(=O)[C@H](CCCNC(=N)N)NC2=O)NC(=O)[C@@H](Cc2ccccc2)NC(=O)[C@H](CC(=O)O)NC(=O)CNC1=O [indium-111 labelled] | – | – | female athymic nu/nu mice, bone | intravenous, 24 h | – | tissue uptake | 0.53 ± 0.27 %ID/g |
| CCCC[C@H](NC(=O)CCCCCCCNC(=O)CN1CCN(CC(=O)O)CCN(CC(=O)O)CC1)C(=O)N[C@H]1CC(=O)NCCCC[C@@H](C(N)=O)NC(=O)[C@H](Cc2c[nH]c3ccccc23)NC(=O)[C@H](CCCNC(=N)N)NC(=O)[C@@H](Cc2ccccc2)NC(=O)[C@H](Cc2c[nH]cn2)NC1=O [copper-64 labelled] | – | – | C57 mice, blood | intravenous, 0.37 MBq, 4 h | – | tissue uptake | 0.18 ± 0.07 %ID/g |
| CCCC[C@H](NC(=O)CNC(=O)CNC(=O)CN1CCN(CC(=O)O)CCN(CC(=O)O)CC1)C(=O)N[C@H]1CC(=O)NCCCC[C@@H](C(N)=O)NC(=O)[C@H](Cc2c[nH]c3ccccc23)NC(=O)[C@H](CCCNC(=N)N)NC(=O)[C@@H](Cc2ccccc2)NC(=O)[C@H](Cc2c[nH]cn2)NC1=O [technetium-99m labelled] | – | – | C57 mouse, kidney | iv, 0.037 MBq, 4 h | – | tissue uptake | 0.81 ± 0.21 %ID/g |
| CCCCOc1ccc(C(=O)OCC[N+]2(C)CC=CCC2)cc1 (stereo not shown) | Muscarinic acetylcholine receptor M5 (CHRM5, Homo sapiens, UniProt P08912) | inositol phosphate accumulation, antagonist, Schild analysis | CHO | together with: carbachol | – | Kb | 1620 nM |
| CN1CCC=C(c2nsnc2OCCCN2CCN(CCCCC3CCN(CC(=O)N4c5ccccc5NC(=O)c5ccccc54)CC3)CC2)C1 | CHRM1 | ligand displacement, radioligand | – | – | – | Ki | 1.45 nM |
| C[C@@H](O)[C@H](NC(=O)[C@@H]1CSSC[C@H](NC(=O)[C@@H](Cc2ccccc2)NC(=O)CN2CCCN3CCN(CCCN(CC(=O)O)CC3)CC2)C(=O)N[C@@H](Cc2ccc(O)cc2)C(=O)N[C@H](Cc2c[nH]c3ccccc23)C(=O)N[C@@H](CCCCN)C(=O)N[C@@H]([C@@H](C)O)C(=O)N1)C(=O)O [copper-64 labelled] | – | – | MCF7 xenograft, mouse | 4 h, SSTR2-yCD expressing tumour, together with: Y3-TATE 200 µg blocking | relative to: saline | SUV | no effect |
| CCC(=O)NC1CN(CCCCC2CCN(CC(=O)N3c4ccccc4NC(=O)c4ccccc43)CC2)CCN(CC(=O)N2CCC(N3CCC(n4c(=O)[nH]c5ccccc54)CC3)CC2)C1 (stereo not shown) | CHRM1 | ligand displacement, radioligand | – | – | – | Ki | 16.6 nM |
| CC(C)C[C@H](NC(=O)[C@H](Cc1ccc(O)cc1)NC(=O)[C@@H](CCCNC(=N)N)NC(=O)[C@@H](CO)NC(=O)[C@H](Cc1ccccc1)NC(=O)[C@H](CC1CCCCC1)NC(=O)[C@H](CC(=O)O)NC(=O)CN1CCCN2CCN(CCCN(CC(=O)O)CC2)CC1)C(=O)N[C@@H](Cc1c[nH]c2ccccc12)C(=O)N[C@@H](CO)C(=O)O [copper-64 labelled] | – | – | female NMRI nude mice, spleen | 1 h p.i. | – | tissue uptake | 6.2 ± 1.2 %ID/g |
| CC[C@H]1[C@@H](O)[C@@H]2[C@H](CC[C@]3(C)[C@@H]([C@H](C)CCOS(=O)(=O)[O-])CC[C@@H]23)[C@@]2(C)CC[C@@H](O)C[C@@H]12.[Na+] | – | histology | ob/ob NASH mouse model, liver | oral, 3 mg/kg once daily, before treatment, baseline of 8 week study | direction not given | NAFLD activity score | 6.3 ± 0.2 |
| N=C(N)NCCC[C@@H]1NC(=O)[C@H](CCCCNC(=O)CNC(=O)CNC(=O)CNC(=O)CC[C@H](NC(=O)CNC(=O)CNC(=O)CNC(=O)CN2CCN(CC(=O)O)CCN(CC(=O)O)CCN(CC(=O)O)CC2)C(=O)NCC(=O)NCC(=O)NCC(=O)NCCCC[C@@H]2NC(=O)[C@@H](Cc3ccccc3)NC(=O)[C@H](CC(=O)O)NC(=O)CNC(=O)[C@H](CCCNC(=N)N)NC2=O)NC(=O)[C@@H](Cc2ccccc2)NC(=O)[C@H](CC(=O)O)NC(=O)CNC1=O [indium-111 labelled] | – | – | female athymic nu/nu mice, brain | intravenous, 1 h | – | tissue uptake | 0.09 %ID/g |
| N=C(N)NCCC[C@@H]1NC(=O)[C@H](CCCCNC(=O)CN2CCN(CC(=O)O)CCN(CC(=O)O)CCN(CC(=O)O)CC2)NC(=O)[C@@H](Cc2ccccc2)NC(=O)[C@H](CC(=O)O)NC(=O)CNC1=O | – | – | octanol/ammonium acetate buffer | pH 6.8, 64Cu-labelled | – | logD | -4.3 |
| N=C(N)NCCC[C@@H]1NC(=O)[C@H](CCCCNC(=O)CNC(=O)CNC(=O)CNC(=O)CC[C@H](NC(=O)CNC(=O)CNC(=O)CNC(=O)CC[C@H](NC(=O)CN2CCN(CC(=O)O)CCN(CC(=O)O)CCN(CC(=O)O)CC2)C(=O)NCC(=O)NCC(=O)NCC(=O)N[C@@H](CCC(=O)NCC(=O)NCC(=O)NCC(=O)NCCCC[C@@H]2NC(=O)[C@@H](Cc3ccccc3)NC(=O)[C@H](CC(=O)O)NC(=O)CNC(=O)[C@H](CCCNC(=N)N)NC2=O)C(=O)NCC(=O)NCC(=O)NCC(=O)NCCCC[C@@H]2NC(=O)[C@@H](Cc3ccccc3)NC(=O)[C@H](CC(=O)O)NC(=O)CNC(=O)[C@H](CCCNC(=N)N)NC2=O)C(=O)NCC(=O)NCC(=O)NCC(=O)NCCCC[C@@H]2NC(=O)[C@@H](Cc3ccccc3)NC(=O)[C@H](CC(=O)O)NC(=O)CNC(=O)[C@H](CCCNC(=N)N)NC2=O)NC(=O)[C@@H](Cc2ccccc2)NC(=O)[C@H](CC(=O)O)NC(=O)CNC1=O [indium-111 labelled] | – | – | female athymic nu/nu mice, eyes | intravenous, 24 h | – | tissue uptake | 0.83 ± 0.2 %ID/g |
| Cc1cc(-c2ccc(NC(=O)[C@H](CCCCNC(=O)CCOCCOCCC(=O)N[C@H](Cc3ccccc3)C(=O)N[C@H]3CSSC[C@@H](C(=O)N[C@H](C(=O)O)[C@@H](C)O)NC(=O)[C@H]([C@@H](C)O)NC(=O)[C@H](CCCCN)NC(=O)[C@@H](Cc4c[nH]c5ccccc45)NC(=O)[C@H](Cc4ccc(O)cc4)NC3=O)NC(=O)CN3CCN(CC(=O)O)CCN(CC(=O)O)CCN(CC(=O)O)CC3)c(C)c2)ccc1N=Nc1ccc2c(S(=O)(=O)O)cc(S(=O)(=O)O)c(N)c2c1O [lutetium-177 labelled] | – | – | patients with metastatic neuroendocrine tumours, all tumour lesions | – | relative to: compound over 177Lu-EB-TATE | tumour absorbed dose ratio | 3 fold |

Repeated from above:
| SMILES | target or system | test | test system | setting | how to read | endpoint | value |
| --- | --- | --- | --- | --- | --- | --- | --- |
| CC(C)C[C@H](NC(=O)[C@H](Cc1ccc(O)cc1)NC(=O)[C@@H](CCCNC(=N)N)NC(=O)[C@@H](CO)NC(=O)[C@H](Cc1ccccc1)NC(=O)[C@H](CC1CCCCC1)NC(=O)[C@H](CC(=O)O)NC(=O)CN1CCCN2CCN(CCCN(CC(=O)O)CC2)CC1)C(=O)N[C@@H](Cc1c[nH]c2ccccc12)C(=O)N[C@@H](CO)C(=O)O [copper-64 labelled] | – | – | female NMRI nude mice, spleen | 1 h p.i. | – | tissue uptake | 6.2 ± 1.2 %ID/g |
